# Results of several laboratories.
# A part holds a random share of what one study measured. “And” joins repeats or separate records; there may be more than shown.
# Sequence of UniProt Q99640 (whole entry, looked up): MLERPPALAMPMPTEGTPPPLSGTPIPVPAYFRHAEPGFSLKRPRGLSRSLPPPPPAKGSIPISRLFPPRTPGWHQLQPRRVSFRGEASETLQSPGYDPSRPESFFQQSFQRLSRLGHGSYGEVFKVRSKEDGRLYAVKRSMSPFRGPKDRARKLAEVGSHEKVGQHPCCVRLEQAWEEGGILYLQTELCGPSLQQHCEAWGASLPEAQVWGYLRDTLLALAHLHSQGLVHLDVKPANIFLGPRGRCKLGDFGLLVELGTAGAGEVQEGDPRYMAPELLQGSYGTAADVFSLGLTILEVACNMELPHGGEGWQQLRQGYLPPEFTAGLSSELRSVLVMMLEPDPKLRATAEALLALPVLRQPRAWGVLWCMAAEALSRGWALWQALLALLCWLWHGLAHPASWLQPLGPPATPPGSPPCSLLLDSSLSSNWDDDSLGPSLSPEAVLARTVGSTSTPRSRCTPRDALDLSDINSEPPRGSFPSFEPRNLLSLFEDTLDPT

# Block 1
# SMILES: CCN1/C(=C/C=C2\CCCC(/C=C/C3=[N+](CC)c4ccccc4C3(C)C)=C2NCCCCCCCCN2CCC(Nc3nc4ccccc4n3Cc3ccc(F)cc3)CC2)C(C)(C)c2ccccc21
# Cell line: U-87 MG
# Concentration: concentration not given
# Baseline: DMSO
refers to,log2 fold change
CXXC5 mRNA,-2.47
RNMT mRNA,1.18
MOK mRNA,-1.92
SLC16A14 mRNA,-1.88
CASP3 mRNA,0.835
NIPSNAP3A mRNA,-0.946

# Mixed results
SMILES,tested on,test,test system,setting,scale,measurement,value
Cc1ccc(O)c(C)c1-c1cnc2[nH]c(-c3cnc(N4CCC(CN5CCN(c6ccc(NC7CCC(=O)NC7=O)cc6F)CC5)CC4)nc3)cc2c1C#N (stereo not drawn),,,"Sprague-Dawley rat, male, plasma","intravenous, 1 mg/kg",,volume of distribution (steady state),2.8 L/kg
CCn1cnc2c(NCc3nc4cc(Cl)c(Cl)cc4[nH]3)nc(N3CCN(C(C)=O)CC3)nc21,MDA-MB-468,"cell viability, CellCounting-Lite",,"8.23 nM, 37 °C",higher = more viable cells,luminescence signal,169000 a.u. and 153000 a.u. and 168000 a.u.
Cc1ccc(O)c(C)c1-c1cnc2[nH]c(-c3cnc(N)nc3)cc2c1C#N,"PKMYT1 (Homo sapiens, UniProt Q99640)","degrader, automated immunoblot",HCC1569,0.15 nM,,degradation,-1.32%
CCn1cnc2c(NCc3nc4cc(Cl)c(Cl)cc4[nH]3)nc(N3CCN(S(C)(=O)=O)CC3)nc21,MDA-MB-468,"cell viability, CellCounting-Lite",,"222.2 nM, 37 °C",higher = more viable cells,luminescence signal,43900 a.u. and 38900 a.u. and 36800 a.u.
Cc1ccc(O)c(C)c1-c1cnc2[nH]c(-c3cnc(N4CCC(CN5CCN(c6ccc(NC7CCC(=O)NC7=O)c(F)c6)CC5)CC4)nc3)cc2c1C#N (racemic),HCC1569,"in-cell western, refers to: CDK1 phospho-Thr14",,,,IC80,194 nM
Cn1cc(-n2cnc3c(NCc4nc5cc(Cl)c(Cl)cc5[nH]4)nc(N4CCNCC4)nc32)cn1,MDA-MB-231,"cell viability, CellCounting-Lite",,"8.23 nM, 37 °C",higher = more viable cells,luminescence signal,463000 a.u. and 444000 a.u. and 466000 a.u.
Cc1nc(C)c(C=[N+]([O-])C(C)(C)C)nc1C,,Western blot,"MPTP mouse model, substantia nigra nuclei","90 mg/kg, unit not given",baseline: β-actin,MEF2D protein level,129 and 146 and 138
Cc1ccc(O)c(C)c1-c1cnc2[nH]c(-c3cnc(N4CCC(CN5CCN(c6c(F)cc(NC7CCC(=O)NC7=O)cc6F)CC5)CC4)nc3)cc2c1C#N (racemic),HCC1569,"in-cell western, refers to: CDK1 phospho-Thr14",,,,IC80,321 nM
CCn1cnc2c(NCc3nc4cc(Cl)c(Cl)cc4[nH]3)nc(N3CCN(C(=O)c4cccnc4)CC3)nc21,MDA-MB-231,"cell viability, CellCounting-Lite",,"222.2 nM, 37 °C",higher = more viable cells,luminescence signal,12900 a.u. and 11400 a.u. and 9820 a.u.

# Repeated from above (mixed results):
SMILES,tested on,test,test system,setting,scale,measurement,value
CCn1cnc2c(NCc3nc4cc(Cl)c(Cl)cc4[nH]3)nc(N3CCN(S(C)(=O)=O)CC3)nc21,MDA-MB-468,"cell viability, CellCounting-Lite",,"222.2 nM, 37 °C",higher = more viable cells,luminescence signal,43900 a.u. and 38900 a.u. and 36800 a.u.
Cc1ccc(O)c(C)c1-c1cnc2[nH]c(-c3cnc(N4CCC(CN5CCN(c6ccc(NC7CCC(=O)NC7=O)cc6F)CC5)CC4)nc3)cc2c1C#N (stereo not drawn),,,"Sprague-Dawley rat, male, plasma","intravenous, 1 mg/kg",,volume of distribution (steady state),2.8 L/kg
